# Published values collected from several papers.
# Parts stem from different laboratories: compare values within a part only. Substitutions count along the parent as printed.

# Study 1
# Partner: ARF13 (Arabidopsis thaliana, UniProt Q9FX25)
# Technique: two-hybrid
# Relative to: out of 4 tests
# Direction: higher = firmer interaction
# B1: IAA19 (Arabidopsis thaliana, UniProt O24409); chain MEKEGLGLEITELRLGLPGRDVAEKMMKKRAFTEMNMTSSGSNSDQCESGVVSSGGDAEKVNDSPAAKSQVVGWPPVCSYRKKNSCKEASTTKVGLGYVKVSMDGVPYLRKMDLGSSQGYDDLAFALDKLFGFRGIGVALKDGDNCEYVTIYEDKDGDWMLAGDVPWGMFLESCKRLRIMKRSDATGFGLQPRGVDE
# B2: ARF12 500-593 (Arabidopsis thaliana, UniProt Q9XID4); chain TEIQNKQFSSSRTCTKVQMQGVTIGRAVDLSVLNGYDQLILELEKLFDIKGQLQTRNQWEIAFTDSDEDKMLVGDDPWPEFCNMVKKIFIQKRR
# B3: ARF11 500-622 (Arabidopsis thaliana, UniProt Q9ZPY6); chain SPKEQKQQTSTRSRIKVQMQGTAVGRAVDLTLLRSYDELIKELEKMFEIEGELSPKDKWAIVFTDDEGDRMLVGDDPWNEFCKMAKKLFIYPSDEVKKMRSKSLLGDKGTIVNLESDQRTVHV
# B4: IAA29 (Arabidopsis thaliana, UniProt Q93WC4); chain MELDLGLSLSPHKSSKLGFNFDLNKHCAIEGAASCLGTEKLRFEATFGLGNVEENCYMPKQRLFALNGQPNEEDEDPLESESSIVYDDEEENSEVVGWPPVKTCMIKYGSYHHRHIRNHHHCPYHHRGRRITAMNNNISNPTTATVGSSSSSSISSRSSMYVKVKMDGVAIARKVDIKLFNSYESLTNSLITMFTEYEDCDREDTNYTFTFQGKEGDWLLRGDVTWKIFAESVHRISIIRDRPCAYTRCLF
# B5: ARF5 788-902 (Arabidopsis thaliana, UniProt P93024); chain ATPRVRTYTKVQKTGSVGRSIDVTSFKDYEELKSAIECMFGLEGLLTHPQSSGWKLVYVDYESDVLLVGDDPWEEFVGCVRCIRILSPTEVQQMSEEGMKLLNSAGINDLKTSVS
# B6: IAA33 (Arabidopsis thaliana, UniProt Q9FKM7); chain MNSFEPQSQDSLQRRFHQDNSTTQQPRDTTTPFIPKPASKNHNNSNSSSGAAGRSFQGFGLNVEDDLVSSVVPPVTVVLEGRSICQRISLDKHGSYQSLASALRQMFVDGADSTDDLDLSNAIPGHLIAYEDMENDLLLAGDLTWKDFVRVAKRIRILPVKGNTRQVKRNE
# B7: ARF2 727-859 (Arabidopsis thaliana, UniProt Q94JM3); chain TKTNSSRSCTKVHKQGIALGRSVDLSKFQNYEELVAELDRLFEFNGELMAPKKDWLIVYTDEENDMMLVGDDPWQEFCCMVRKIFIYTKEEVRKMNPGTLSCRSEEEAVVGEGSDAKDAKSASNPSLSSAGNS
# B8: IAA32 (Arabidopsis thaliana, UniProt Q8RYC6); chain MDPNTPADFFKGSSKFHTYYSQTKKGGGVIDLGLSLRTIQHETYLPPARMIGLDGYGELIDWSQPSYNSITQLKSEDTGHQRLAQGYYNNEGESRGKYAYVKVNLDGLVVGRKVCLVDQGAYATLALQLNDMFGMQTVSGLRLFQTESEFSLVYRDREGIWRNVGDVPWKEFVESVDRMRIARRNDALLPF
# Residues (chain): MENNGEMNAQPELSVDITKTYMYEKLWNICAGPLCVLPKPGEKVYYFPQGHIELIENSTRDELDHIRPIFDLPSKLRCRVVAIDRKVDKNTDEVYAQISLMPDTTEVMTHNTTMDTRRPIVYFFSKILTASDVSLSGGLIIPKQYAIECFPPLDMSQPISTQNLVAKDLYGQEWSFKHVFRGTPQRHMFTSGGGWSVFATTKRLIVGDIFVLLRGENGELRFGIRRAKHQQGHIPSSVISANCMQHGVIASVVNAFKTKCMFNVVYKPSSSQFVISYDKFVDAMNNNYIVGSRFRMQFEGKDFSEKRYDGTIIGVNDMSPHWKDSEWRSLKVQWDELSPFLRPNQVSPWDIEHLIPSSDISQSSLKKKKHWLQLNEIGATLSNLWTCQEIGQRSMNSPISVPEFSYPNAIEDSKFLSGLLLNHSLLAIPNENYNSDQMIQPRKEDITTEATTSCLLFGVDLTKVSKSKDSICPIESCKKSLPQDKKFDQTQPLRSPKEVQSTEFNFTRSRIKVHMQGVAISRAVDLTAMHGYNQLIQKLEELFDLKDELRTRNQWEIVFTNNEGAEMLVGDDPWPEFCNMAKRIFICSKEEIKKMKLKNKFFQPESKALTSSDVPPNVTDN
Sequence,positive tests
B1 (IAA19),0
B2 (ARF12 500-593),0
B3 (ARF11 500-622),0
B4 (IAA29),0
B5 (ARF5 788-902),0
B6 (IAA33),1
B7 (ARF2 727-859),0
B8 (IAA32),1

# Study 2
# Target: Sal-like protein 4, full length isoform A (SALL4, Homo sapiens, UniProt Q9UJQ4, residues 1-1053)
# Chain of UniProt Q9UJQ4 (whole entry, looked up): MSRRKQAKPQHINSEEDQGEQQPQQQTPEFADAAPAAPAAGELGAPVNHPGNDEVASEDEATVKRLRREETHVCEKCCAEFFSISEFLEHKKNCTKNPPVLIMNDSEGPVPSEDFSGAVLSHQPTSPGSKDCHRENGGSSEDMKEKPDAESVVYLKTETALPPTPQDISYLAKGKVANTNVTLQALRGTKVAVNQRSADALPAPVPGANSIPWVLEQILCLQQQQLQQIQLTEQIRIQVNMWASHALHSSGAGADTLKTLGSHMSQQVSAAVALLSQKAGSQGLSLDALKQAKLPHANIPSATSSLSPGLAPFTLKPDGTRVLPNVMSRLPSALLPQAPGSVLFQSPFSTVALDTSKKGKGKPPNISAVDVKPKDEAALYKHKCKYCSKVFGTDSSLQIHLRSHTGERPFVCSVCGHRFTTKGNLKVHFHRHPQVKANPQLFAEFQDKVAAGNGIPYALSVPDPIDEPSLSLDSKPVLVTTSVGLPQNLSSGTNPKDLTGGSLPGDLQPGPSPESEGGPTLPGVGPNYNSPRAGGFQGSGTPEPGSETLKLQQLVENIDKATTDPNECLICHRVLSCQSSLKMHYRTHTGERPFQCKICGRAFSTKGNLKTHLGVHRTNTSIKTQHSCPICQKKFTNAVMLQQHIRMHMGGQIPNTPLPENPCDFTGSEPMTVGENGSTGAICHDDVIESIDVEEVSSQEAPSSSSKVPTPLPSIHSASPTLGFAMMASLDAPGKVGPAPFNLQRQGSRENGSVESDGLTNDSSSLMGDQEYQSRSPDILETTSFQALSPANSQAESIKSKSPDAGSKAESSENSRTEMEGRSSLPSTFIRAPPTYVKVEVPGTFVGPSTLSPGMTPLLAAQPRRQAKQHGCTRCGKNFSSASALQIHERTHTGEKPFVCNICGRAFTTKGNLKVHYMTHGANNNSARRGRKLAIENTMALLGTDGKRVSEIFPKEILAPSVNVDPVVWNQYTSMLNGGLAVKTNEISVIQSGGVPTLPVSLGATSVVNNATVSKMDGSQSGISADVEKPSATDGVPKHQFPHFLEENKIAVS
# Technique: universal PBM
# Form: double-stranded DNA, one strand shown
# Sample: in vitro
# Concentration: 600 nM
# Setting: 8-mer, flanks averaged, mean of replicates
# Direction: higher = stronger binding
Oligonucleotide,E-score
TAGTACTA,0.114
GGCCTATA,0.0575
CCTGTGCA,-0.0885
AAGCTCGT,-0.102
AAGTGACT,0.0473
GGACATGA,-0.0721
CCCTTGCC,-0.238
ATTGCGGC,-0.0504

# Mixed results
# P1: viral docking peptide; KGVKRKLFAEDSS; partner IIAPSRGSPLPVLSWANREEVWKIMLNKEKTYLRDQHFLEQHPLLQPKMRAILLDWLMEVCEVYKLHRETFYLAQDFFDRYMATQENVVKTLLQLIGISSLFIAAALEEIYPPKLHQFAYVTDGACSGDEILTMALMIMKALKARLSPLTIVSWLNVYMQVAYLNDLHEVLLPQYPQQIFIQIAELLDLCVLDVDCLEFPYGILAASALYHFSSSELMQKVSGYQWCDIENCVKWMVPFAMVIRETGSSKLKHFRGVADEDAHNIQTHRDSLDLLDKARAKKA
Molecule,tested on,test,test system,setting,how to read,measurement,value
"RTRAF (Homo sapiens, UniProt Q9Y224)","RTCB (Homo sapiens, UniProt Q9Y3I0)",cross-linking MS,,hits only,,interaction screen,cross-linked
P1 E10C,"CCNE1, cyclin fold, Cln2 fusion (human)","yeast growth competition, sequencing",yeast,strong parent motif,"relative to: not given, higher = stronger binding",normalised enrichment score,6.72
"RANBP10 (Homo sapiens, UniProt Q6VN20)","GID8 (Homo sapiens, UniProt Q9NWU2)",cross-linking MS,cell fractions,added: DSSO,,cross-linked residues,K293 to K48
"CCDC86 (Homo sapiens, UniProt Q9H6F5)","MRTO4 (Homo sapiens, UniProt Q9UKD2)",cross-linking MS,cell fractions,added: DSSO,,cross-linked residues,K229 to K94
"XRCC6 (Homo sapiens, UniProt P12956)","XRCC5 (Homo sapiens, UniProt P13010)",cross-linking MS,cell fractions,added: DHSO,,cross-linked residues,E450 to E371

# For quick reference, copied from above (mixed results):
Molecule,tested on,test,test system,setting,how to read,measurement,value
"RTRAF (Homo sapiens, UniProt Q9Y224)","RTCB (Homo sapiens, UniProt Q9Y3I0)",cross-linking MS,,hits only,,interaction screen,cross-linked
P1 E10C,"CCNE1, cyclin fold, Cln2 fusion (human)","yeast growth competition, sequencing",yeast,strong parent motif,"relative to: not given, higher = stronger binding",normalised enrichment score,6.72
"RANBP10 (Homo sapiens, UniProt Q6VN20)","GID8 (Homo sapiens, UniProt Q9NWU2)",cross-linking MS,cell fractions,added: DSSO,,cross-linked residues,K293 to K48
